Values quoted from earlier work as cited in several papers.
Each line is one published result; not all experiments were run side by side. Numbers after ± are the reported error.

Sequences of proteins named here, by UniProt entry; tags and fusion partners are left off. Residues count along the entry.
UniProt P36544, 23-502 limits assumed: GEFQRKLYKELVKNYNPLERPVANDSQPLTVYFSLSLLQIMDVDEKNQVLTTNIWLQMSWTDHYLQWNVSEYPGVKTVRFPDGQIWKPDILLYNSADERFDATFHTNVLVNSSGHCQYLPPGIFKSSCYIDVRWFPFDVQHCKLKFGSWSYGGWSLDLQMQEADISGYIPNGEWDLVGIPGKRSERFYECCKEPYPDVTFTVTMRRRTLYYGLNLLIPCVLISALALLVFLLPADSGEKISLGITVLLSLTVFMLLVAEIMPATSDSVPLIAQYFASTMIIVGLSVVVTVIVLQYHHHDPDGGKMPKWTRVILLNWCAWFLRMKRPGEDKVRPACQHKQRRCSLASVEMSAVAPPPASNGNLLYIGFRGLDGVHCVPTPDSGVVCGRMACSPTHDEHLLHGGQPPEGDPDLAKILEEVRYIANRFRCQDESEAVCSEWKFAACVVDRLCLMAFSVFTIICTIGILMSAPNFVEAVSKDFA
UniProt Q6IQ20, whole entry: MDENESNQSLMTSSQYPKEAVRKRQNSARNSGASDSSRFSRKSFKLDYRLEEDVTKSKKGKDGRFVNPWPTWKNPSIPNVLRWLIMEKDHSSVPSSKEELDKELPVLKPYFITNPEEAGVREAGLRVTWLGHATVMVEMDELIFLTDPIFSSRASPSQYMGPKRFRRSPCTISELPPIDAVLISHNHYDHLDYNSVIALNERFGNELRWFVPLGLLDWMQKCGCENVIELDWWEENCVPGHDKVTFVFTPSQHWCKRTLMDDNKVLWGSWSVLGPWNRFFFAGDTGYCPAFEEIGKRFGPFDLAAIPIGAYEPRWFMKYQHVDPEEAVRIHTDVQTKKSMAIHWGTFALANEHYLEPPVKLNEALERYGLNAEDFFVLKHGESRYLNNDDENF

CN1CC[C@]23c4c5ccc(O)c4O[C@H]2[C@@H](O)C=C[C@H]3[C@H]1C5 — threshold dose for significant hypothermia (rat; subcutaneous): 30 mg/kg
Nc1nc(O)c2nc(CNc3ccc(C(=O)O)cc3)cnc2n1 — IC50 (Ricin, A chain (Ricinus communis, UniProt P02879); in vitro translation, inhibitor): 600 µM
α-conotoxin ImI — IC50 (Neuronal acetylcholine receptor subunit alpha-7 (CHRNA7, Homo sapiens, UniProt P36544); ACh-evoked current, inhibitor; Xenopus laevis oocytes; added: 100 µM ACh): 0.497 ± 0.032 µM
O=C(NN1C(=O)[C@@H]2[C@@H]3C=C[C@@H]([C@H]4C[C@@H]34)[C@@H]2C1=O)c1ccc(C(F)(F)F)cc1 — EC50 (monkeypox virus; viral replication; HFF, outbreak isolates): 0.004 to 0.02 µM
methyl arachidonyl fluorophosphonate — IC50 (N-acyl-phosphatidylethanolamine-hydrolyzing phospholipase D (Homo sapiens, UniProt Q6IQ20); enzyme activity, inhibitor): 1000 µM
CN(C)C(=O)Oc1ccc[n+](C)c1 — IC50 (BJ fibroblasts; cytotoxicity, MTT): 1470 µM

A few entries again:
Nc1nc(O)c2nc(CNc3ccc(C(=O)O)cc3)cnc2n1 — IC50 (Ricin, A chain (Ricinus communis, UniProt P02879); in vitro translation, inhibitor): 600 µM
